# Published values gathered from unrelated publications.
# Each line is one published result; not all experiments were run side by side. Values joined by “and” are separate records of one study, mostly repeats; a detail may differ. ± gives the spread as reported.
SMILES,test,system,conditions,scale,endpoint,result
CC(C)[C@@H]1NC(=O)CNC(=O)[C@H](CC(N)=O)NC(=O)[C@H](CCCNC(=N)N)NC(=O)[C@H](Cc2ccc(O)cc2)NC(=O)[C@H](C(C)C)NC(=O)[C@@H](NC(=O)[C@@H](NC(=O)[C@H](CC(N)=O)NC(=O)[C@H](Cc2c[nH]c3ccccc23)NC(=O)[C@H](C)NC(=O)[C@H](Cc2ccccc2)NC(=O)CN)C(C)C)CSSC[C@@H](C(=O)N[C@@H](Cc2cnc[nH]2)C(=O)N[C@@H](CCCNC(=N)N)C(=O)N[C@@H](CCCNC(=N)N)C(=O)N[C@@H](C)C(=O)N[C@@H](CC(N)=O)C(N)=O)NC(=O)[C@H](C(C)C)NC(=O)[C@H](CCCNC(=N)N)NC1=O,,"ICR mice, serum","intraductal mammary, 10 mg/kg, day 5",,total protein,51.9 ± 1.14 g/L
C[C@H]1COCCN1c1nc(NCc2cccnc2C(F)(F)F)c2cccnc2n1,,BALB/c mice,"intravenous, 5 mg/kg",,total clearance,7.78 mL/min/kg
COc1cccc(Oc2ccccc2NC(=O)CNC(=O)c2cccc3ccccc23)c1,,"esterase-deficient SCID mice, male","oral, 15 mg/kg/day, 14 days, toxicity study",,total protein,50 g/L and 52 g/L and 53 g/L
Nc1ncnc2c1ncn2[C@@H]1O[C@@H]2COP(=O)([S-])O[C@@H]3[C@H](O)[C@@H](COP([O-])(=S)O[C@H]2[C@H]1O)O[C@H]3n1cnc2c(N)ncnc21.[Na+].[Na+] (stereo partly drawn),,"non-tumor-bearing mice, serum","intravenous, 1 mg/kg, toxicity study",,total bilirubin,2.84 ± 0.52 µmol/L
CC(C)C[C@H](NC(=O)[C@H](CCCCN)NC(=O)OCC1c2ccccc2-c2ccccc21)C(=O)N[C@H](C(=O)N[C@@H](Cc1ccccc1)C(=O)N[C@@H](Cc1ccccc1)C(=O)N[C@@H](CCCCN)C(=O)NCC(=O)N[C@@H](Cc1ccccc1)C(=O)N[C@@H](C)C(=O)N[C@@H](Cc1c[nH]c2ccccc12)C(=O)N[C@@H](CC(N)=O)C(=O)N[C@H](C(=O)N[C@H]1CSSC[C@@H](C(=O)N[C@@H](Cc2c[nH]cn2)C(=O)N[C@@H](CCCNC(=N)N)C(=O)N[C@@H](CCCNC(=N)N)C(=O)N[C@@H](C)C(=O)N[C@@H](CC(N)=O)C(N)=O)NC(=O)[C@H](C(C)C)NC(=O)[C@H](CCCNC(=N)N)NC(=O)[C@H](C(C)C)NC(=O)CNC(=O)[C@H](CC(N)=O)NC(=O)[C@H](CCCNC(=N)N)NC(=O)[C@H](Cc2ccc(O)cc2)NC(=O)[C@H](C(C)C)NC1=O)C(C)C)C(C)C,,"ICR mice, serum","intraductal mammary, 10 mg/kg, day 5",,total protein,53.8 ± 1.77 g/L
CN1CCN(S(=O)(=O)c2cc([N+](=O)[O-])ccc2N(CCOS(C)(=O)=O)CCOS(C)(=O)=O)CC1,,"naive NOD/SCID mice, pooled blood","intraperitoneal, 18.8 mg/kg, week 4",,total protein,59 g/L
CC(C)[C@@H]1CC[C@@H](C)C[C@@H]1O,acute oral toxicity OECD,"Swiss albino mice, serum","oral, 300 mg/kg",,total bilirubin,0.58 ± 0.02 mg/dL
CCN(CC)CCCC(C)Nc1ccnc2cc(Cl)ccc12 (stereo not drawn),,female SCID mice,"sc, 50 mg/kg daily, day 14",direction not given,total severity score,0
C/C=C1/CN2CC[C@]34C(=C(C(=O)OC)[C@H]1C[C@H]23)Nc1ccc(Br)cc14,novelty-induced hyperlocomotion,CD-1 mice,"subcutaneous, 10 mg/kg, 0 to 30 min cumulative, horizontal and stereotypic activity",,total distance,decreased

# Excerpt of the above:
SMILES,test,system,conditions,scale,endpoint,result
Nc1ncnc2c1ncn2[C@@H]1O[C@@H]2COP(=O)([S-])O[C@@H]3[C@H](O)[C@@H](COP([O-])(=S)O[C@H]2[C@H]1O)O[C@H]3n1cnc2c(N)ncnc21.[Na+].[Na+] (stereo partly drawn),,"non-tumor-bearing mice, serum","intravenous, 1 mg/kg, toxicity study",,total bilirubin,2.84 ± 0.52 µmol/L
